# Published values pooled from the literature.
# Protocols differ between the studies behind these lines. Numbers after ± are the reported error.
# Sequence of UniProt Q96IU4 (whole entry, looked up): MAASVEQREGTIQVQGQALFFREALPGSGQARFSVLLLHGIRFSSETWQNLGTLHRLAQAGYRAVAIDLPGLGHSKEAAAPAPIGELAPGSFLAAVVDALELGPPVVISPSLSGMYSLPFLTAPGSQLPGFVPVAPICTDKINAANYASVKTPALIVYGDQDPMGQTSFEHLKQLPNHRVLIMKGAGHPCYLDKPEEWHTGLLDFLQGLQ
# Sequence of UniProt Q13561 (whole entry, looked up): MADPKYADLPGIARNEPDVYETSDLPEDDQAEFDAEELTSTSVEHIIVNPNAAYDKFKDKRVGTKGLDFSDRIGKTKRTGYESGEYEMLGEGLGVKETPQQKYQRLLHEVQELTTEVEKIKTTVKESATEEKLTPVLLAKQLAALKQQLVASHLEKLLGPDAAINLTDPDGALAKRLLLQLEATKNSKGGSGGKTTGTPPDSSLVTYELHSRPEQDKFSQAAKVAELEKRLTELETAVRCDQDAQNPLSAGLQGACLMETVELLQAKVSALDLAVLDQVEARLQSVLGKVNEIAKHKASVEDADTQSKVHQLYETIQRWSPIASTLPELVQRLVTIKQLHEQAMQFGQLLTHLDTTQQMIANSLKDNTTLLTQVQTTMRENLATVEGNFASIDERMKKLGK
# Sequence of UniProt Q9H422 (whole entry, looked up): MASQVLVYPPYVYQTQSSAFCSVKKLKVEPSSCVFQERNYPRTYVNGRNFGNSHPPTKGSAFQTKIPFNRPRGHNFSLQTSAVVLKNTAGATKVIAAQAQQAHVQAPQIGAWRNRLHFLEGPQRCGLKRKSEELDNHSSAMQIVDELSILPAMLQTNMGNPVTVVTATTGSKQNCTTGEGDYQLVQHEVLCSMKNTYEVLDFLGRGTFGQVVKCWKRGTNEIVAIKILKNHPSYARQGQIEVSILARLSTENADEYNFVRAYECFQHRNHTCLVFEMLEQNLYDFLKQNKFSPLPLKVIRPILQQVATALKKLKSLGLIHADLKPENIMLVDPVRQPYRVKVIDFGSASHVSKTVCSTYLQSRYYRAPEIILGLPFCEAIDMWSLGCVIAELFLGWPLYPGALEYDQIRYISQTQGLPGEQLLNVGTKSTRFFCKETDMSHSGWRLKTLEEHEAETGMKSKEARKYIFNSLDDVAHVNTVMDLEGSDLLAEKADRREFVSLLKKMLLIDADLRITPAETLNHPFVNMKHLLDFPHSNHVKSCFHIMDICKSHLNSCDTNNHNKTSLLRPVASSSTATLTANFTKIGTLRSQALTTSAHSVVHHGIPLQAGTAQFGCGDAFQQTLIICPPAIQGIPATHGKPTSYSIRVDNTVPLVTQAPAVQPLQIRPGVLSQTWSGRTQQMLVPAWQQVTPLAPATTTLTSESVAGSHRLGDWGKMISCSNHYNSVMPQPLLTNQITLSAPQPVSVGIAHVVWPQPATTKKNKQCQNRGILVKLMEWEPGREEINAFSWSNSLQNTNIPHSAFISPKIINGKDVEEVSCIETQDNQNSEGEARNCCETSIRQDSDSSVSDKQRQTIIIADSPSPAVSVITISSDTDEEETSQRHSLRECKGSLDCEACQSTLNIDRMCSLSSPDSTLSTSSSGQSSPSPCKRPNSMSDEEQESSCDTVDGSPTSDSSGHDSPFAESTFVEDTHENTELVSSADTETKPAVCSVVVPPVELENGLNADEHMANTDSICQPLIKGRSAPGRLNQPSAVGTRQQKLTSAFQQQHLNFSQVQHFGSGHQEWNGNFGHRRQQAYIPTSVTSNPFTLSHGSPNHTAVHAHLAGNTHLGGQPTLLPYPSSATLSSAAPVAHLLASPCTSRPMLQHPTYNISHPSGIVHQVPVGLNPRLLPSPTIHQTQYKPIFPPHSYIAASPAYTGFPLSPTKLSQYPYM
SMILES,target or system,test,test system,conditions,scale,endpoint,value
O=S(=O)(Nc1ccccc1)c1ccc(NC(=S)Nc2ccccc2)cc1,,item: AST,"female mouse, blood","oral, 5 mg/kg daily, 14 days",,serum enzyme activity,587 U/L
NCCCC[C@@H]1NC(=O)[C@@H](Cc2c[nH]c3ccccc23)NC(=O)[C@H](c2ccccc2)NC(=O)[C@@H]2C[C@@H](OC(=O)NCCN)CN2C(=O)[C@H](Cc2ccccc2)NC(=O)[C@H](Cc2ccc(OCc3ccccc3)cc2)NC1=O,,,healthy human volunteers,1950 µg twice daily,,subjects with decreased appetite,11%
C=CCNc1c(O)cc2c(O)c1C[C@@H](C)C[C@H](OC)[C@H](O)[C@@H](C)/C=C(\C)[C@H](OC(N)=O)[C@@H](OC)/C=C\C=C(/C)C(=O)N2,,,"unresectable or metastatic STS, GIST, other","intravenous, 225 mg/m^2",,patients with myalgia TEAE,0%
COc1ccc(N2C(=O)N(c3c(C)cccc3Cl)Cc3cnc(Nc4ccc(C5CCN(C)CC5)cc4OC)nc32)nc1,"HIPK3 (Homo sapiens, UniProt Q9H422)",kinase activity,,0.5 µM,,inhibition,5%
CCCCCOc1ccc(-c2ccc(-c3ccc(C(=O)N[C@H]4C[C@@H](O)[C@@H](OCC[N+](C)(C)C)NC(=O)[C@@H]5[C@@H](O)[C@@H](C)CN5C(=O)[C@H]([C@@H](C)O)NC(=O)[C@H]([C@H](O)[C@@H](O)c5ccc(O)cc5)NC(=O)[C@@H]5C[C@@H](O)CN5C(=O)[C@H]([C@@H](C)O)NC4=O)cc3)cc2)cc1,,,"adult ICU patients, mITT, serum","dose not given, Baseline",,bilirubin,16.7 µmol/L
O=C(O)CCCOc1ccc(F)cc1-c1cc(-c2ccccc2C(F)(F)F)n(-c2ccccc2)n1,,item: Glu,"Crl:CD(SD) rats, female, blood","iv, 25 µg/kg, 1 day",,blood chemistry,95.7 ± 13.5 mg/dL
Cn1cncc1-c1c(F)cncc1NC(=O)c1c(N)nn2cc(F)cnc12,,,human patients,"oral, 80 mg once daily, 21 days",,dose-limiting toxicity upper GI haemorrhage,0%
O=S(=O)(Nc1ccc2c(c1)B(O)OC2)c1ccc(Cl)cc1,,PAMPA,pre-coated trilayer membrane,"200 µM, 5 h, pH 7.4, donor plate, PBS",,donor concentration,180 ± 3.8 µM
CC[C@H](C)[C@H](NC(=O)[C@H](Cc1ccccc1)NC(=O)[C@H](CCC(=O)O)NC(=O)[C@H](CCCNC(=N)N)NC(=O)[C@H](C)NC(=O)[C@H](C)NC(=O)[C@H](CCC(N)=O)NC(=O)[C@H](CCC(=O)O)NC(=O)[C@H](CCC(=O)O)NC(=O)[C@H](CC(C)C)NC(=O)[C@H](Cc1ccc(O)cc1)NC(=O)[C@H](CO)NC(=O)[C@H](CO)NC(=O)[C@@H](NC(=O)[C@H](CC(=O)O)NC(=O)[C@H](CO)NC(=O)[C@@H](NC(=O)[C@H](Cc1ccccc1)NC(=O)[C@@H](NC(=O)CNC(=O)[C@H](CCC(=O)O)NC(=O)[C@H](C)NC(=O)CCc1c[nH]cn1)[C@@H](C)O)[C@@H](C)O)C(C)C)C(=O)N[C@@H](C)C(=O)N[C@@H](Cc1c[nH]c2ccccc12)C(=O)N[C@@H](CC(C)C)C(=O)N[C@H](C(=O)N[C@@H](CCCNC(=N)N)C(=O)NCC(=O)N[C@@H](CCCNC(=N)N)C(=O)N[C@@H](CCCCNC(=O)COCCOCCNC(=O)COCCOCCNC(=O)CC[C@H](NC(=O)CCCCCCCCCCCCCCCCC(=O)O)C(=O)O)C(=O)NCC(=O)NCC(=O)N[C@@H](CO)C(=O)N[C@@H](CCCCNc1c(NCCCCCN(O)C(=O)CCC(=O)NCCCCCN(O)C(=O)CCC(=O)NCCCCCN(O)C(C)=O)c(=O)c1=O)C(=O)O)C(C)C [zirconium-89 labelled],,ex vivo gamma counting,"rat, kidney","subcutaneous, 3 nmol/kg, 168 h, together with: [89Zr]-labelled peptide",,tissue uptake,5.17 %ID/g
N[C@@H]1c2ccccc2OC12CCN(c1cnc3c(N4CCCc5ncccc54)n[nH]c3n1)CC2,,,advanced metastatic solid tumour patients,"oral, 50 mg once daily",,TEAE leading to interruption,66.7%
CC(=O)c1c(C)c2cnc(Nc3ccc(C4CCN(CCS(C)(=O)=O)CC4)cn3)nc2n(C2CCCC2)c1=O,,,"human, plasma","oral, 25 mg once daily, day 21, multiple doses",,Tmax,1.17 h
COc1ncccc1-c1cnn2ccc(N3CCN(C(=O)OC(C)C)CC3)nc12,,,"rat, thermal hyperalgesia model, plasma","oral, 10 mg/kg, 180 min",,drug concentration,810 nM
CO[C@H]1C[C@@H]2CC[C@@H](C)[C@@](O)(O2)C(=O)C(=O)N2CCCC[C@H]2C(=O)O[C@H]([C@H](C)C[C@@H]2CC[C@@H](OC(=O)NCCOCCOCCOCCOCCOCCOCCOCCOCCC(=O)N3CCc4cc(Cn5nc(-c6ccc7oc(N)nc7c6)c6c(N)ncnc65)ccc4C3)[C@H](OC)C2)C[C@@H](O)[C@H](C)/C=C(\C)[C@@H](O)[C@@H](OC)C(=O)[C@H](C)C[C@H](C)/C=C/C=C/C=C/1C,,"phase 1 dose escalation, item: mucositis",advanced solid tumour patients,"intravenous, 6 mg weekly, grade ≥3",,TRAE incidence,8.3%
C[C@H]1CN(c2n[nH]c3nc(N[C@H]4CC[C@H](NS(=O)(=O)CCC(F)(F)F)CC4)ncc23)CCO1,"Dynactin subunit 2 (DCTN2, Homo sapiens, UniProt Q13561)","Kinobeads competition, item: DCTN2",,"0.16 µM, unit not given",reference: vehicle,remaining binding,0.7
COc1cc(Nc2ncc(F)c(Nc3ccc4c(n3)NC(=O)C(C)(C)O4)n2)cc(OC)c1OC,AMPA receptor,binding,,,,IC50,> 10 µM
N.N.[Cl][Pt][Cl],,,"nude mice, serum","dose not given, 10 days",,ALT,53 ± 14 U/L
CCCSc1ccc2nc(NC(=O)OC)[nH]c2c1,,,"mouse, blood","oral, 50 mg/kg",,urea level,2.16 µmol/L
CC[C@H](C)[C@@H]1NC(=O)[C@@H]2CCCN2C(=O)[C@H](CC(C)C)NC(=O)[C@H](CC(C)C)NC(=O)CNC(=O)[C@@H](NC(=O)[C@@H](NC(=O)[C@H](CC(=O)O)NC(=O)CNC(=O)[C@@H](NC(=O)[C@H](C)NC(=O)CNC(=O)[C@H](CCCCN)NC(=O)[C@H](CC(C)C)NC(=O)[C@H](CC(C)C)NC(=O)[C@H](CCCCN)NC(=O)CNC(=O)[C@@H](NC(=O)[C@@H](N)CC(C)C)C(C)C)C(C)C)C(C)C)CSSC[C@@H](C(=O)O)NC1=O,,"RNA-seq, item: Per1","mouse, traumatic brain injury model, frontal cortex and hippocampus",dose not given,reference: TBI alone,log2 fold change,-0.823
CC(C)[C@@H]1CC[C@@H](C)C[C@@H]1O,,acute oral toxicity OECD,"Swiss albino mice, serum","oral, 300 mg/kg",,blood urea nitrogen,23.7 ± 3.01 mg/dL
Cc1cc(C)c(CNC(=O)c2cc(Cl)c3c(c2C)O[C@@](C)([C@H]2CC[C@H](N(C)C)CC2)O3)c(=O)[nH]1,,,"human, relapsed/refractory NHL","concentration not given, treatment-related TEAEs, grade 5",,Hypercalcaemia incidence,0%
C[C@@H](O)[C@@H]1NC(=O)[C@H](CCCCN)NC(=O)[C@@H](Cc2c[nH]c3ccccc23)NC(=O)[C@H](Cc2ccccc2)NC(=O)[C@@H](NC(=O)[C@H](N)Cc2ccccc2)CSSC[C@@H](C(=O)N[C@H](CO)[C@@H](C)O)NC1=O,,population PK model,"human, typical 75 kg",weight exponent 0.75 fixed,,inter-compartmental clearance,3.59 L/h
COc1cc2c(Oc3ccc4[nH]c(C)cc4c3F)ccnc2cc1OCC1(N)CC1,,,paediatric recurrent refractory sarcoma,12 mg,,grade 3 Cholesterol elevation,0%
CC(C)Nc1ccnc(Nc2cccc(-c3cccnc3)c2)n1,,item: BUN,"mouse, blood","intraperitoneal, 3 mg/kg",,blood chemistry,16.8 mg/dL
COc1ccc(-c2c(-c3ccc(C#N)c(F)c3)nc(N3CCC(N)CC3)n(C)c2=O)cc1F,,item: Chest pain,human patients,"oral, 60 mg, dose expansion",,serious adverse event incidence,5%
Cl.Cn1c(=O)n(CCCCN2CCC3(CC2)OCc2ccccc23)c2ccccc21,,,"rat, male, brain","iv, 10 mg/kg, 0.5 h",,C0,464 ± 49.6 ng/g
CN1CCN(S(=O)(=O)c2cc([N+](=O)[O-])ccc2N(CCOS(C)(=O)=O)CCOS(C)(=O)=O)CC1,,,"naive NOD/SCID mice, pooled blood","intraperitoneal, 18.8 mg/kg, week 4",,ALT,32 U/L
CN[C@@H](C)C(=O)N[C@H]1CN(S(=O)(=O)c2cccc(S(=O)(=O)N3CC[C@H]4CC[C@@H](C(=O)NC(c5ccccc5)c5ccccc5)N4C(=O)[C@@H](NC(=O)[C@H](C)NC)C3)c2)CC[C@H]2CC[C@@H](C(=O)NC(c3ccccc3)c3ccccc3)N2C1=O,,,patients with advanced solid tumours,"0.6 mg, phase I monotherapy",,treatment-related ALT elevation incidence,0%
COc1ncnn2ccc(-c3cnc4nc(C)n(Cc5nnc([C@@H](C)F)o5)c4c3)c12,,,human patients,"oral, dose not given, all-grade adverse drug reaction",,incidence of Stomatitis,21.4%
O=C(c1ccc(Cl)cc1)N1CCN2C(=O)N(OC(=O)N3CCOc4ccccc43)C(=O)C2C1 (stereo not shown),"Putative protein-lysine deacylase ABHD14B (Homo sapiens, UniProt Q96IU4)",MS-based ABPP,SW-620 conditioned medium,"10 µM, 1 h, 37 °C, mean protein ratio",reference: compound over DMSO,probe labelling ratio,1.32
CN1CC[C@@H](c2c(O)cc(O)c3c(=O)cc(-c4ccc(C(F)(F)F)cc4Cl)oc23)[C@@H]1CO,,item: Anemia,relapsed AML,"oral, 200 mg, grade 3-4, intermittent dosing",,patients with adverse event,30%
N=C(N)NCCC[C@@H](NC(=O)[C@@H](N)Cc1ccccc1)C(=O)N[C@@H](Cc1ccccc1)C(=O)N[C@@H](CCCCN)C(N)=O,,LC-MS,"human, urine","subcutaneous, 25 mg, 5.833 h, median",,fraction of dose excreted unchanged,33.5%
COc1ccc(C[C@@H]2NC(=O)[C@H]([C@@H](C)O)NC(=O)[C@@H]3[C@@H]4CCN3C(=O)[C@@H]3Cc5cn(c6ccc(F)cc56)CCCCCCN(Cc5ccc(cc5)CCNC(=O)[C@]5(C)CCCN5C2=O)C(=O)CCC(=O)N[C@@H](C)C(=O)N[C@H](CNC(=O)CCCCC[N+](C)(C)C)C(=O)N[C@@H](Cc2cccc(c2)CNC(=O)CO4)C(=O)N3)cc1,,item: Regurgitation,humans,"concentration not given, Study-001",,participants with adverse event,0%
CCN(CCO)CCCC(C)Nc1ccnc2cc(Cl)ccc12 (stereo not shown),,item: Agitation grade 1,newly diagnosed glioblastoma patients,"oral, 400 mg/dose, with radiotherapy and temozolomide",,patients with adverse event,14%
CC(C)C[C@H](NC(=O)[C@H](CCCCN)NC(=O)OCC1c2ccccc2-c2ccccc21)C(=O)N[C@H](C(=O)N[C@@H](Cc1ccccc1)C(=O)N[C@@H](Cc1ccccc1)C(=O)N[C@@H](CCCCN)C(=O)NCC(=O)N[C@@H](Cc1ccccc1)C(=O)N[C@@H](C)C(=O)N[C@@H](Cc1c[nH]c2ccccc12)C(=O)N[C@@H](CC(N)=O)C(=O)N[C@H](C(=O)N[C@H]1CSSC[C@@H](C(=O)N[C@@H](Cc2c[nH]cn2)C(=O)N[C@@H](CCCNC(=N)N)C(=O)N[C@@H](CCCNC(=N)N)C(=O)N[C@@H](C)C(=O)N[C@@H](CC(N)=O)C(N)=O)NC(=O)[C@H](C(C)C)NC(=O)[C@H](CCCNC(=N)N)NC(=O)[C@H](C(C)C)NC(=O)CNC(=O)[C@H](CC(N)=O)NC(=O)[C@H](CCCNC(=N)N)NC(=O)[C@H](Cc2ccc(O)cc2)NC(=O)[C@H](C(C)C)NC1=O)C(C)C)C(C)C,,,"ICR mice, serum","intraperitoneal, 5 mg/kg, day 5",,ALT,48.8 ± 3.05 IU/L
COc1cccc2c1CCCC2CCCN1CCN(C2CCCCC2)CC1 (stereo not shown),,,"CD-1 mouse, male, plasma","intraperitoneal, 10 mg/kg",,AUC(0-inf),495 ng·h/mL
CCC[C@H]1CC[C@H](c2ccc(-c3ccc(F)cc3)cc2)CC1,,,"rat, placenta","10 ng/mL in perfusate, low dose, mixture of 21 LCMs",,placental accumulation,1.12 ± 3.37 ng/g
O=C1Nc2cc3[nH]nc(-c4ccncc4)c3cc2CN1Cc1ccccc1,,CTCAE v4.03,"human, relapsed or refractory advanced solid tumours","intravenous, 6.4 mg/kg",,patients with subretinal fluid,22%
C=CC(=O)Nc1cc(Nc2nccc(Nc3cc(Cl)c(F)cc3C(C)(C)O)n2)c(OC)cc1N1CC[C@@H](N(C)C)C1,,,human patients,"oral, 100 mg, treatment-emergent adverse events",,patients with dizziness,22.2%
CC1(C)[C@H](C=C(Cl)Cl)[C@H]1C(=O)OCc1cccc(Oc2ccccc2)c1,,item: CYP2B6,"human, age 5 years, recombinant human CYP2B6",0.1 µM,,enzyme contribution to clearance,0.05%
C[C@@H]1OC(=O)NN=C1c1ccc(-c2ccc(F)cc2)c(C(F)(F)F)c1,,"phase I trial, item: Fatigue worst grade 1",human patients,5 mg once daily,,patients with adverse event,0%
C[C@@H](NC(=O)N1C(=O)[C@H](Cc2ccnc(N)c2)[C@H]1C(=O)O)C1CCCCC1,,,healthy Chinese adult volunteers,"continuous intravenous infusion, dose not given, 5.0 days, all doses pooled",,drug-related abnormal liver function,10%
C[C@@H](O)[C@@H](CO)NC(=O)[C@@H](CCCNC(=N)N)NC(=O)[C@@H]1CCCN1C(=O)[C@@H]1CSSC[C@H](NC(=O)[C@H](Cc2ccccc2)NC(=O)CN2CCN(CC(=O)O)CCN(CC(=O)O)CCN(CC(=O)O)CC2)C(=O)N[C@@H](Cc2ccc(O)cc2)C(=O)N[C@@H](Cc2ccccc2)C(=O)N[C@@H](CCC(N)=O)C(=O)N[C@@H](CC(N)=O)C(=O)N1 [gallium-68 labelled],,,"healthy Wistar rat, small intestine","intravenous, 8 MBq, 60 min, individual animals",,tissue uptake,0.07 %ID/g
C[C@]1(CO)Cc2ncn(-c3ccc(C#N)c(Cl)c3)c2C(=O)O1,,,"human, plasma","40 mg, first dose fasted",,half-life,5.1 h
